Published values of several laboratories.
Compare with care: the assays were run in different laboratories. ± gives the spread as reported. Values after ≈ are worked out from the molar mass of the structure shown.

Cc1ccc2nc(C(F)(F)F)c(C(=O)NCc3cccc(Cl)c3)n2c1
MIC (Haemophilus influenzae; microbial growth, broth dilution; H128): 64 µM (≈ 23.5 µg/mL)

COc1cc(/C=C/C(=O)/C=C/c2ccc(O)c(OC)c2)ccc1O
IC50 (human immunodeficiency virus 1; viral replication; VSV-G pseudotyped pNL4-3 virus): 0.8 µM

CCN(CC)C12C3CCC4C3C3C(CCC31)C42
EC50 (Influenza A virus; viral replication; MDCK, A/Ned/378/05 (H1N1)): 8.7 ± 3.3 µM

COC(=O)[C@]1(C)CCC[C@]2(C)[C@H]3C[C@H]4C(C(C)C)=C[C@]3(CC[C@H]21)[C@H]1[C@@H]4[C@@H](OCC#CCN2CCOCC2)CC[C@@H]1O
selectivity index (Influenza A virus; MDCK, A/Puerto Rico/8/34 (H1N1); reference: CC50 over IC50): 1.77

CSCC[C@@H](C=O)NC(=O)[C@H](CC(C)C)NC(=O)[C@H](CC(C)C)NC(C)=O
EC50 (human coronavirus NL63; viral replication): 1.24 ± 0.04 µM

CCCC(=O)NCC(=O)N[C@@H](CC(C)C)C(=O)N[C@@H](CC(C)C)C(=O)N[C@@H](CCCCN)C(=O)N[C@@H](CCCNC(=N)N)C(=O)N[C@H](C(=O)N[C@@H](CCCCN)C(=O)N[C@H](C(=O)N[C@@H](CC(C)C)C(=O)N[C@@H](CC(C)C)C(=O)NCCCC[C@H](NC(=O)[C@H](CCCCNC(=O)[C@H](CC(C)C)NC(=O)[C@H](CC(C)C)NC(=O)[C@@H](NC(=O)[C@H](CCCCN)NC(=O)[C@@H](NC(=O)[C@H](CCCNC(=N)N)NC(=O)[C@H](CCCCN)NC(=O)[C@H](CC(C)C)NC(=O)[C@H](CC(C)C)NC(=O)CNC(=O)CCC)[C@@H](C)CC)[C@@H](C)O)NC(=O)[C@H](CC(C)C)NC(=O)[C@H](CC(C)C)NC(=O)[C@@H](NC(=O)[C@H](CCCCN)NC(=O)[C@@H](NC(=O)[C@H](CCCNC(=N)N)NC(=O)[C@H](CCCCN)NC(=O)[C@H](CC(C)C)NC(=O)[C@H](CC(C)C)NC(=O)CNC(=O)CCC)[C@@H](C)CC)[C@@H](C)O)C(N)=O)[C@@H](C)O)[C@@H](C)CC
FIC index (Klebsiella pneumoniae; checkerboard; ATCC 700603; together with: gentamicin): 0.625

COc1ccc(CCNc2cc(-c3ccccc3)nc3ncnn23)cc1
MIC (Haemophilus influenzae; microbial growth, broth dilution; H128): 64 µM (≈ 22.1 µg/mL)

C=CC(=O)Nc1cccc2c1cc(C)n2-c1nc2c(c(NCc3ccccc3)n1)CCCC2
viability (Influenza A virus; MDCK, A/WS/33 (H1N1); 0.5 µM, 24 (unit not given), infected cells): 0%

NC12C3CCC4C3C3C(CCC31)C42
EC50 (Influenza A virus; viral replication; MDCK, H3N2 A/HK/7/87): > 100 µM

CCCCCCCC(=O)NCC(=O)N[C@@H](CC(C)C)C(=O)N[C@@H](CC(C)C)C(=O)N[C@@H](CCCCN)C(=O)N[C@@H](CCCNC(=N)N)C(=O)N[C@H](C(=O)N[C@@H](CCCCN)C(=O)N[C@H](C(=O)N[C@@H](CC(C)C)C(=O)N[C@@H](CC(C)C)C(N)=O)[C@@H](C)O)[C@@H](C)CC
FIC index (Klebsiella pneumoniae; checkerboard; ATCC 700603; together with: rifampicin): 0.312

COc1ccc2nc(C)cc(OCC(=O)Nc3ccccc3OC)c2c1
MIC (Haemophilus influenzae; broth microdilution; H128 AcrA-): 32 µM (≈ 11.3 µg/mL)

C[C@@H](O)[C@H](NC(=O)c1ccc(C#Cc2ccc(CN3CCOCC3)cc2)cc1)C(=O)NO
MIC90 (Burkholderia cepacia): > 64 µg/mL

CCN(CC)CCOC1CCC2(C)C(=CCC3C4CCC(=O)C4(C)CCC32)C1 (centres unmarked)
IC50 (Human coronavirus 229E; viral replication, imaging; MRC5; 24 h): 2.6 µM

CCN(CC)CC#CCOC(=O)[C@]1(C)CCC[C@]2(C)[C@H]3C[C@H]4C(C(C)C)=C[C@]3(CC[C@H]21)[C@@H]1C(=O)OC(=O)[C@@H]14
selectivity index (Influenza A virus; MDCK, A/Puerto Rico/8/34 (H1N1); reference: CC50 over IC50): 0.49

CCC1(CC)C2CC3CC(C2)CC1(N)C3
EC50 (Influenza A virus; viral replication; MDCK, A/Ned/378/05 (H1N1)): 4.7 ± 1.3 µM

CC[C@H](C)[C@H](NC(=O)[C@H](CCCNC(=N)N)NC(=O)[C@H](CCCCN)NC(=O)[C@H](CC(C)C)NC(=O)[C@H](CC(C)C)NC(=O)CN)C(=O)N[C@@H](CCCCN)C(=O)N[C@H](C(=O)N[C@@H](CC(C)C)C(=O)N[C@@H](CC(C)C)C(=O)NCCCC[C@H](NC(=O)[C@H](CC(C)C)NC(=O)[C@H](CC(C)C)NC(=O)[C@@H](NC(=O)[C@H](CCCCN)NC(=O)[C@@H](NC(=O)[C@H](CCCNC(=N)N)NC(=O)[C@H](CCCCN)NC(=O)[C@H](CC(C)C)NC(=O)[C@H](CC(C)C)NC(=O)CN)[C@@H](C)CC)[C@@H](C)O)C(=O)NCCCC[C@H](NC(=O)[C@H](CCCCNC(=O)[C@H](CC(C)C)NC(=O)[C@H](CC(C)C)NC(=O)[C@@H](NC(=O)[C@H](CCCCN)NC(=O)[C@@H](NC(=O)[C@H](CCCNC(=N)N)NC(=O)[C@H](CCCCN)NC(=O)[C@H](CC(C)C)NC(=O)[C@H](CC(C)C)NC(=O)CN)[C@@H](C)CC)[C@@H](C)O)NC(=O)[C@H](CC(C)C)NC(=O)[C@H](CC(C)C)NC(=O)[C@@H](NC(=O)[C@H](CCCCN)NC(=O)[C@@H](NC(=O)[C@H](CCCNC(=N)N)NC(=O)[C@H](CCCCN)NC(=O)[C@H](CC(C)C)NC(=O)[C@H](CC(C)C)NC(=O)CN)[C@@H](C)CC)[C@@H](C)O)C(N)=O)[C@@H](C)O
FIC index (Klebsiella pneumoniae; checkerboard; ATCC 700603; together with: polymyxin B): 0.125

Cc1cccc(-c2nc(Nc3ccncn3)c3c(C)csc3n2)n1
MIC (Haemophilus influenzae; microbial growth, broth dilution; H128): 16 µM (≈ 5.35 µg/mL)

CC(N)C12C3CCC4C3C3C(CCC31)C42 (centres unmarked)
EC50 (Influenza A virus; viral replication; MDCK, H1N1 A/PR/8/34): 22 µM

CC[C@H](C)[C@H](NC(=O)[C@H](C)NC(=O)[C@H](CCC(=O)O)NC(=O)[C@H](CCC(=O)O)NC(=O)[C@H](CC(C)C)NC(=O)[C@H](CCCCN)NC(=O)[C@H](CCCCN)NC(=O)[C@H](CCSC)NC(=O)[C@H](CCC(=O)O)NC(=O)[C@H](Cc1ccc(O)cc1)NC(=O)[C@H](CCC(=O)O)NC(=O)[C@H](CC(C)C)NC(=O)[C@H](CC(=O)O)NC(=O)[C@H](CC(C)C)NC(=O)[C@H](Cc1ccccc1)NC(=O)[C@@H](NC(=O)[C@@H](NC(=O)[C@@H](N)CC(N)=O)C(C)C)[C@@H](C)O)C(=O)N[C@@H](CCCCN)C(=O)N[C@@H](CCCCN)C(=O)N[C@@H](CC(C)C)C(=O)N[C@@H](CCC(=O)O)C(=O)N[C@@H](CCC(=O)O)C(=O)N[C@@H](CO)C(=O)N[C@@H](Cc1ccc(O)cc1)C(=O)N[C@H](C(=O)N[C@@H](CC(=O)O)C(=O)N[C@@H](CC(C)C)C(=O)N[C@@H](CCCCN)C(=O)N[C@@H](CCC(=O)O)C(=O)N[C@@H](CC(C)C)C(=O)NCC(=O)N[C@H](C(=O)N[C@@H](Cc1ccc(O)cc1)C(=O)N[C@@H](CCC(=O)O)C(=O)N[C@@H](Cc1ccc(O)cc1)C(N)=O)[C@@H](C)O)[C@@H](C)CC
IC50 (HCoV-NL63; viral entry; pseudotyped virus): 3.7 µM

NCC12C3CCC4C3C3C(CCC31)C42
EC50 (Influenza A virus; viral replication; MDCK, H3N2 A/HK/7/87): > 100 µM

Cc1cccc(-c2nc(Nc3ccncn3)c3sccc3n2)n1
MIC (Haemophilus influenzae; broth microdilution; H128 AcrA-): 0.5 µM (≈ 0.16 µg/mL)

CONC(=O)[C@H]1[C@@H](O)[C@@]2(O)c3c(OC)cc(OC)cc3O[C@@]2(c2ccc(OC)cc2)[C@@H]1c1ccccc1
viral RNA level (Human coronavirus 229E; measured: genomic and subgenomic RNA; concentration not given): decreased

C1CC2C3C4C5CCC4C24CNCC54C13
EC50 (Influenza A virus; viral replication; MDCK, A/FM/1/47 (H1N1)): 12 ± 3 µM
